# Assay results pooled from the literature.
# Numbered parts are unrelated; each lists some results of a single study. Substitutions count along the parent as printed.

# Series 1
# Target: Hepatocyte nuclear factor 3-alpha (Foxa1, Mus musculus, UniProt P35582, residues 1-468, full length assumed)
# Technique: EMSA with sequencing
# Molecule type: double-stranded DNA, one strand shown
# Sample: in vitro
# Concentration: 10 and 20 nM
# Notes: whole designed probe, mean of two concentrations, ends assumed
# Baseline: negative control set to 0
# Reading: higher = stronger binding
# Shared flanks, not repeated: GTGAGCGGTGCCCATTGATGGGGAAC … TTTCACTGGGATCGTGGGGAC
# Target sequence (chain): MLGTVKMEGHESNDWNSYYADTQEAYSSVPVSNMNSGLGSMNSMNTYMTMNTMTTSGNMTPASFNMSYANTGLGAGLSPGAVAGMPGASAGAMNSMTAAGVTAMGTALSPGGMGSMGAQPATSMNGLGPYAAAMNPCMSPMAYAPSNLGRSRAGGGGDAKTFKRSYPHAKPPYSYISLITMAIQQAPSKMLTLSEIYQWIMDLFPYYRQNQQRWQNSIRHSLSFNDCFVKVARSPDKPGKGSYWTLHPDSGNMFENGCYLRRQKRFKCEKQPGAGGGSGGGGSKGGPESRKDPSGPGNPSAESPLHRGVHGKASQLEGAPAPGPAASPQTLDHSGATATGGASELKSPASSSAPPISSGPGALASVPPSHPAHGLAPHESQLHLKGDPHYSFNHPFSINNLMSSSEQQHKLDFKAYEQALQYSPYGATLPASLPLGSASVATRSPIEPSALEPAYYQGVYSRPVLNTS
Oligonucleotide,normalised bound fraction
AAAGAGAAAAATAAATATCATCATGGACTTTAATGTGCACAGAAAATAAAATGTTCAATAAAAAATATTAATTATTTCTAGTTTCATGCTTTCTAGATTACACAGGTAATATATTTCAAAATATTTAAATTACCTTTAAAATGAAAATACTAAAAAATGTATGAGAAAAGAATAGAGTAAAGTCAAGATGCTT,0.206 ratio
CTTCCAAAGGTCAAGTTGATACTGCATGACCTAAGGCCCCCGCCATAAATTGCGTAGATTGCATAGATGACCTGGCACAACCCAAAGCCTTAGGTAATTTAAGACACTCTTAGAAAACAGGGTATTCCAAAGGCTCAGGGATTATCTTTCAGGAGATGGGCAGGGCCCAGTTGGGTTTTTTTTTTTTTTTTTT,0.0182 ratio
AGGTGAATTGGCTGCTTCCATCCTGGCTTGGAACTTCAGACATAGAAGCCTTGGGACTTTCTCAGGACTTTCTCCAGATCTGTCACATGCTCAGCAAACAAGCATCTCTGTGGATCACGTCTGACTCATGCGGGATGTTGGTGAAACTGTGTGTTGGTCTAGGTACCTAGCCCATGCTAGGTGCTCATCGAAT,0.114 ratio
ATCTTCCCCCTCTTCCTTGCCCCACCAGCTCACCTTCCCGGGTCAAAGTAAACAAGTGTTTACTTTGAAGCCGGCATTCGTTAACCCTCTTCACGCGCATACTGCCAGAGCAAACAGATGAATCATGGTCCTTTGGCGACGCCAGGCTCCGGGAGAGCAAAGCACCGTGTCAGGGCCATGATCCGGGGTGGCC,0.463 ratio
TTATTGCTACAGATATTTTACAATTAGTATTTCTATGTAAGCACATAGGCTATTATCAAGGACAATTTATTTAGCACTTATTTTGAAATTATATGTAAACATGCAAACAAATAAGAACCCAAGAGTATAAACTCTATGACAAAAGTCAGTATGCAAGCATTAAGAACTCTTTCAGAAATGTGTATTTAAAATG,0.37 ratio
TGCTTTGGTGACATATGTGGGCTTCATCATCTACATGTAGCCCACCTAACTCCATCTTTACACATCTGTGTACCCATCTCTGGAGTTTTGTTCATGTTTACTTTGAACTGTTTTTCTGTGTTACTGAATTCCCTGCATCCTTCAGGAACAAACTTATATCCATGTTCACCATAAAATGTCTCCTGATAACTCC,0.383 ratio
CATTAGAGTCAAAGTTGTTAAGGGGAGCTAGTCATAGCTACCACGTGGCCAGGCATGTGGAAATGAATCATCACCAGACACCAGGCACACATCTATTTACTTTAAATAATGCTGACAACCTAGTTCATAGTGACACACTACTTGAGATATATAGAATAACATTATTACCCAGTAAGTATGTGAACATTCCGAT,0.321 ratio

# Series 2
# Target: ABI1, truncated, D143A, DHFR fusion (Arabidopsis thaliana)
# Technique: DHFR PCA, deep sequencing
# Sample: yeast
# Notes: methotrexate growth selection, single substitutions
# Together with: (+)-ABA 0.11 µM
# Baseline: wild-type fitted maximum
# Reading: higher = stronger binding
# Starting sequence: PYL1, truncated, DHFR fusion (Arabidopsis thaliana); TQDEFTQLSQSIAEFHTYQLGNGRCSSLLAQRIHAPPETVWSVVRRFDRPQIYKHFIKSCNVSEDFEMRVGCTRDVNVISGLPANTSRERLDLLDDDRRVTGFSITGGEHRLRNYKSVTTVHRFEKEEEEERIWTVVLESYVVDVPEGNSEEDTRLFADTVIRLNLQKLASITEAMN
Change,relative binding score
V100E,-6.49%
E38N,6.32%
V137T,-2.5%
L169C,1.94%
G108N,-0.764%
S27A,6.91%
A84D,26.5%
V78K,8.97%
N149Q,51%

# Series 3
# Target: RNA binding protein fox-1 homolog 2, RRM domain, GST-SBP tag (RBFOX2, Homo sapiens, UniProt O43251-10, residues 100-194)
# Technique: RNA Bind-n-Seq
# Molecule type: RNA
# Sample: in vitro
# Concentration: 365 nM
# Notes: natural RNA segment, single round, ends assumed
# Baseline: no-protein control
# Reading: higher = stronger binding
# Shared flanks, not repeated: GGGAGUUCUACAGUCCGACGAUC … UGGAAUUCUCGGGUGCCAA
# Construct (chain): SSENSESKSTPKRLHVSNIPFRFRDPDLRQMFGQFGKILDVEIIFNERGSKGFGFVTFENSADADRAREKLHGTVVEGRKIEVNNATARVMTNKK
Oligonucleotide,RBNS enrichment (R)
AUAAGAAUUUGAGCAAGGCCAGUGACCACAGUGAAGUCUGAGACCCAUGUGUUGAAGUGCACGCCUCAUCUUUAGCAGCUGCCCCAAAGAGGCCAGAUCCUGGCAUUUUG,0.957
UGACUUUACGUGCAAAUGUUUUGACCAUAUUGAUCAUAUAUUUUGACAAAAUAUAUUUAUAACUACGUAUUAAAAGAAAAAAAUAAAAUGAGUCAUUAUUUUAAAGGUAA,0.597
UACAUAACAGAAGAAACAACAAUAAGGAUACAAUUGUAUAUAAACACCUACUAUAACAUCCAUGUGUGUUUGGAUAAAGACCUCUUAGAACCAUGGAGAAAUUAACUCAG,0.448
CUCCUAGGUGCAUGAUUCAGUGCGUGCCAUGUGUCAUUAGCUUUUACUGAUAACCAUAUUCUGGCUUGUUCCCUUACCCCCUACUUCUAUCCAAUUUUCUCUGCUAGGGG,11.4
UCCACGGUGACAUGUCAUUUGAUUGUAAAUUAAGUGUUCUGAUUAGUAAGAACUAAGCAGGGGGCCACAUGCUCUCAAUGGAGACAAUAAAGUGUUGUCUUUUUCUUAUU,0.295
AUAAAAUAAUUUUGACAUAACAGACAUGAACAGACAUAAGAACGGCUUCCAAUGUUAAUUGAUAAUCUAUAAAUAUCAUUUUGGAAUUUGACUGGUUCACAAAUAUAUCC,0.672
AGAAAAAAUAUUUAUAAUAAAAUCAUUUGUAGGAAGAUGUUUAAGAAGUUAGGAAAUUCAGUUUGUCUCUUACUUCUUGAAAAUGGCAGGGAGCAGCUGCAGCCCCUGAC,0.729
ACUGUAAUGUGGGACUAACAUGGAUGUGAUGUCUUAUUUAAAAAGAAAUCAGGAUAAUUAGUAACAAUUCUAGUUCUUUCUCUCCCCGCUCUACUUCUUUUUUUUCCCUC,0.455
UCAGUGACCUCCAAGAUUUAGCCACUGGGGACACAUUUUAGUUUCUGGAACACAGCCUGAUCUACAAGUACCAGCAUCGUUCUUUUGCCAGCCAGUGAUUUUCUUUUAAA,0.466
UUUUCAUAAGUAACACAGAUUCCCUGAUUUUUAAAAACUAAAAAUACAGCUAAACCUUUCUUAUGUAUAAAGUAUGCCUAUCAUAUACAGGGAGAGGUGGGUAAUAAACU,0.725
GAAAGAGGAAGGAGCUGAAGUUGGUUGGCCCUGCUGCACCCCCUUACAAGGUUGUGAGGCCCUCUCCCCCCCAACUUUGUUUAAGGCAUUUUGGUUUUUUAAAAUCUGUA,0.587
UCUCCCUGUGUCAGAUGAUAUGUCCUUGAAGCUGGCAGGGGAUUCCCAGUCCAGGGAAUAUCCCUACAUGAUUUUUGUCAUUCAUGGGUCCUCCCUGGGCCUGACAACGG,1.79

# Series 4
# Target: CCNB2, cyclin fold, Cln2 fusion (human)
# Technique: yeast growth competition, sequencing
# Sample: yeast
# Notes: weak parent motif
# Baseline: not given
# Reading: higher = stronger binding
# Starting sequence: USP37 docking peptide (human); PSAKRSLGFLPQP
Change,normalised enrichment score
P1A,0.236
R5A,-0.0368
K4A,0.478
L7A,-0.0188
L10A,0.227
Q12A,0.521

# Series 5
# Target: Histone acetyltransferase KAT6A, winged helix 2, GST fusion (KAT6A, Homo sapiens, UniProt Q92794, residues 85-181)
# Technique: protein binding microarray
# Molecule type: double-stranded DNA, one strand shown
# Sample: in vitro
# Concentration: not given
# Notes: 8-mer, flanks averaged, mean of 2 arrays, mostly near background
# Baseline: not given
# Reading: higher = stronger binding
# Target sequence (chain): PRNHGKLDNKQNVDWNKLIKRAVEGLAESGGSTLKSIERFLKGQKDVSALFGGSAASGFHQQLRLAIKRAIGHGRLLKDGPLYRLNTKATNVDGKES
Oligonucleotide,E-score
AGAGAATA,0.0554
CGACTACA,-0.0803
CTGGACAG,0.0698
GCTAGTCC,-0.147
ACGTCTGA,-0.0368
GGGTATGA,-0.0142
CAAGCACC,-0.15
TAGACCCA,0.013
CAATGAGA,-0.17
TGATCGAA,0.0496
GCATGCAC,-0.0493
AATAGGGC,-0.0417
AGTAACCC,-0.0908
ATCAAGCA,0.0962
AATGGTAA,-0.0151
GATAAATC,0.102

# Excerpt of the above (series 3):
Oligonucleotide,RBNS enrichment (R)
UCCACGGUGACAUGUCAUUUGAUUGUAAAUUAAGUGUUCUGAUUAGUAAGAACUAAGCAGGGGGCCACAUGCUCUCAAUGGAGACAAUAAAGUGUUGUCUUUUUCUUAUU,0.295
UACAUAACAGAAGAAACAACAAUAAGGAUACAAUUGUAUAUAAACACCUACUAUAACAUCCAUGUGUGUUUGGAUAAAGACCUCUUAGAACCAUGGAGAAAUUAACUCAG,0.448
AUAAGAAUUUGAGCAAGGCCAGUGACCACAGUGAAGUCUGAGACCCAUGUGUUGAAGUGCACGCCUCAUCUUUAGCAGCUGCCCCAAAGAGGCCAGAUCCUGGCAUUUUG,0.957
UUUUCAUAAGUAACACAGAUUCCCUGAUUUUUAAAAACUAAAAAUACAGCUAAACCUUUCUUAUGUAUAAAGUAUGCCUAUCAUAUACAGGGAGAGGUGGGUAAUAAACU,0.725
CUCCUAGGUGCAUGAUUCAGUGCGUGCCAUGUGUCAUUAGCUUUUACUGAUAACCAUAUUCUGGCUUGUUCCCUUACCCCCUACUUCUAUCCAAUUUUCUCUGCUAGGGG,11.4
ACUGUAAUGUGGGACUAACAUGGAUGUGAUGUCUUAUUUAAAAAGAAAUCAGGAUAAUUAGUAACAAUUCUAGUUCUUUCUCUCCCCGCUCUACUUCUUUUUUUUCCCUC,0.455
